Measured values pooled from the literature.
Parts stem from different laboratories: compare values within a part only. Positions count from the first letter of the parent shown.

Set 1 — method: RNA Bind-n-Seq; molecule type: RNA; medium: in vitro; tested at: 365 nM; reference: no-protein control; direction: higher = stronger binding
Target: RNA binding protein fox-1 homolog 2, RRM domain, GST-SBP tag (RBFOX2, Homo sapiens, UniProt O43251-10, residues 100-194)
Setting: natural RNA segment, single round, ends assumed
Construct (chain): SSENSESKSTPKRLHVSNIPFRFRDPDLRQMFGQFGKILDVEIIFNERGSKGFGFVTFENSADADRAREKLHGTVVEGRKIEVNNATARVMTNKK
`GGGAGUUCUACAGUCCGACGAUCAAAAGCUGUAUUUGAACAGAGCAUGCGUUUAAAGCCCUUAACAAAUUCAUCACAUAAUCUUAAAUUGGAACUUUGCACGGUUCUUAGUCCAAGUGUGCUCUCCUUUCAUAUGGAAUUCUCGGGUGCCAA`: “RBNS enrichment (R)” 1.82.
For `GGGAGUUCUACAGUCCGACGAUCAGCCUUGCUGAACUAAGUUUUGUGUGUAUAUAUUUAAAGAUCAGUGUUUAAAUAAAAAAAAAAAAAAAACCAACUAUGUACUUACUCUGACUUCUGCGGACAGCAAUUUGUGGAAUUCUCGGGUGCCAA`, “RBNS enrichment (R)” read 5.15.
For `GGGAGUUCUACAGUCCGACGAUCUGGGUUCAUGACUGUGAACACAAUGUGCCCUGUGCUGGGCCACAGCUUCCUUGUUUAUGAAGUGAGGUGGUUUCUAGUGCUUUUCCAGGUUCUGCCUUAGUUAAAAACUAUGGAAUUCUCGGGUGCCAA`, “RBNS enrichment (R)” read 0.288.
Under “RBNS enrichment (R)”, `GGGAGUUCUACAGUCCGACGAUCUUUUGUUCUCUGGUAAUGUAAUAAGCAUGAUGGUGCCUUCUAUUAAUACAUCAUUCCAGUCUUGCUGGUAAUUUUGUACAGUAUAGUGUAUGAAUUGCUGUGCUGCAAAGUGGAAUUCUCGGGUGCCAA` is recorded as 3.38.
`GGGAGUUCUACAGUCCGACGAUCUGCAUAAGGAGCCACUGCUGCCACCACUUUUGGAUUUUAUGGGAGGCUCCUUCAUCGAAUGCUAAACCUUUGAGUAGAGUCUCCCUGGAUCACAUACCAGGUCAGGGAGGUGGAAUUCUCGGGUGCCAA`: “RBNS enrichment (R)” 0.418.
Under “RBNS enrichment (R)”, `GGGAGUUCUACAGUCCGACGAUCGGUAUCGGGAAUCCUUGAACAAUUUGGGUUUUCUUCCCCUUUUUUCUCUUUCGUGCUGCAUGCACAUUUAUCCAACACUCACGGGUUGUUUGGGAAAAAGUACCAGCAAUUGGAAUUCUCGGGUGCCAA` is recorded as 0.788.
`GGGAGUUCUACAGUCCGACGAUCUUUAUUUUUAGGUUAUUUUCUUGGAAGGUUGGGAAAAGAUGUUUGUUUUAACAGGUCAUGUACUACGUUGUUGUUUUCAUUUCUGUUAUAAGUAAAACUAAAAGCACAGAUGGAAUUCUCGGGUGCCAA`: “RBNS enrichment (R)” 0.646.
`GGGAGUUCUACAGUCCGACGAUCUCAGGAAGCAAGAGUGUUCAUCACUGUUGUAAUUUCAAAUGCUCCUUGUGAUUUCUGGCAUCUCUGUGGGGUGAGGUGUUCUGUUACUCUUCACAUUCAAAGACUGUCACUGGAAUUCUCGGGUGCCAA` — result for “RBNS enrichment (R)”: 0.326.
For `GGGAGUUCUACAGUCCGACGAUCCAAAAUGUGAGUCAGUGUGAUGAAGCAGUGGCUCUGUCAUCUCGGCCUUUAUCCAAUAACAAACCAGCAUCUCUUAAAGGCGCUUUUGGCCUAGACACCCCUGAAGUUUGUGGAAUUCUCGGGUGCCAA`, “RBNS enrichment (R)” read 0.455.
Under “RBNS enrichment (R)”, `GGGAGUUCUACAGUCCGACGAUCGUCUCUAUCCUCUGUGGCCUUCAGCUAAUUUCUGCUCCCCUGAGAUUCGUCCUUCAGCCCCAUCAUGUGCUUUGGGAUGAGUGUAAAUAAAACGGGGCUGUGGCUUGGGAUGGAAUUCUCGGGUGCCAA` is recorded as 0.542.
Under “RBNS enrichment (R)”, `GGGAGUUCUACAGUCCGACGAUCUCACAAACUCUGCCAAAUUUGUGGAACUAUGAAAUGUAUUAUUUGUAGACAUAAAGACUUGAUUGCUUUCCAGUUUAAUGAAAGCUUAAAUGUCCCUGCGAACCCACAAUUGGAAUUCUCGGGUGCCAA` is recorded as 0.6.
`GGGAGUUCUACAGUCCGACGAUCACCCCUUGCUGGCACUGACUUUGCCUUGAACAGACCCUCUCCCCUCCCCCACAAGCCUUUAAUUGAGAGCCGCUCUUUAUAAGUGUUCGCUUGUGCAAAAGGGAAUAGUGUGGAAUUCUCGGGUGCCAA`: “RBNS enrichment (R)” 1.24.

Set 2 — method: universal PBM; molecule type: double-stranded DNA, one strand shown; medium: in vitro; tested at: not given; direction: higher = stronger binding
Target: Sal-like protein 4, full length isoform B (SALL4, Homo sapiens, UniProt Q9UJQ4-2, residues 1-616)
Setting: 8-mer, flanks averaged, mean of replicates
For `GTTACGAA`, the E-score was 0.16.
`CACTGAGC` gave an E-score of -0.184.
With `AGAGAATC` the E-score was -0.0043.
`ACGGACGT` gave an E-score of -0.0873.
`AGGAGAAG` has an E-score of -0.0682.
For `GTGGTGCA`, the E-score was -0.0911.
`ATACTGCC` has an E-score of -0.0965.
For `TCCAAACA`, the E-score was 0.0357.
`ACCTCTGC` has an E-score of -0.12.
For `GAGGTATA`, the E-score was 0.182.
With `GGTGTCTA` the E-score was -0.0415.

Set 3 — target: CCNB2, cyclin fold, Cln2 fusion (human); method: yeast growth competition, sequencing; medium: yeast; setting: weak parent motif; reference: not given; direction: higher = stronger binding
Parent: RBL2 docking peptide (human); STTRRRLFVENDS
For `L7E`, “normalised enrichment score” read -0.0638.
`R5Y`: “normalised enrichment score” 0.0498.
`R5G` — result for “normalised enrichment score”: -0.217.
`T2A` — result for “normalised enrichment score”: 0.508.
`R5W`: “normalised enrichment score” 0.00703.
`T2M` — result for “normalised enrichment score”: 0.481.
`V9R`: “normalised enrichment score” 0.289.
For `V9Y`, “normalised enrichment score” read 0.564.

Mixed results
With `PhoQ, residues 284 288 289 292 302 303 SIHMAM` the fold induction was 12 (PhoP, residues 12 14 15 18 19 HEGLL (Escherichia coli, UniProt P23836); Sort-seq, item: YFP reporter; E. coli; PhoQ-PhoP variant library, together with: 10 µM Mg2+; reference: high Mg2+ state, higher = stronger signaling).

Excerpt of the above (set 3):
`R5G` — result for “normalised enrichment score”: -0.217.
`R5Y`: “normalised enrichment score” 0.0498.
For `V9Y`, “normalised enrichment score” read 0.564.
`V9R`: “normalised enrichment score” 0.289.
For `L7E`, “normalised enrichment score” read -0.0638.
